Measurements gathered from unrelated publications.
A part holds a random share of what one study measured.
Chain of UniProt P42336 (whole entry, unmodified, looked up): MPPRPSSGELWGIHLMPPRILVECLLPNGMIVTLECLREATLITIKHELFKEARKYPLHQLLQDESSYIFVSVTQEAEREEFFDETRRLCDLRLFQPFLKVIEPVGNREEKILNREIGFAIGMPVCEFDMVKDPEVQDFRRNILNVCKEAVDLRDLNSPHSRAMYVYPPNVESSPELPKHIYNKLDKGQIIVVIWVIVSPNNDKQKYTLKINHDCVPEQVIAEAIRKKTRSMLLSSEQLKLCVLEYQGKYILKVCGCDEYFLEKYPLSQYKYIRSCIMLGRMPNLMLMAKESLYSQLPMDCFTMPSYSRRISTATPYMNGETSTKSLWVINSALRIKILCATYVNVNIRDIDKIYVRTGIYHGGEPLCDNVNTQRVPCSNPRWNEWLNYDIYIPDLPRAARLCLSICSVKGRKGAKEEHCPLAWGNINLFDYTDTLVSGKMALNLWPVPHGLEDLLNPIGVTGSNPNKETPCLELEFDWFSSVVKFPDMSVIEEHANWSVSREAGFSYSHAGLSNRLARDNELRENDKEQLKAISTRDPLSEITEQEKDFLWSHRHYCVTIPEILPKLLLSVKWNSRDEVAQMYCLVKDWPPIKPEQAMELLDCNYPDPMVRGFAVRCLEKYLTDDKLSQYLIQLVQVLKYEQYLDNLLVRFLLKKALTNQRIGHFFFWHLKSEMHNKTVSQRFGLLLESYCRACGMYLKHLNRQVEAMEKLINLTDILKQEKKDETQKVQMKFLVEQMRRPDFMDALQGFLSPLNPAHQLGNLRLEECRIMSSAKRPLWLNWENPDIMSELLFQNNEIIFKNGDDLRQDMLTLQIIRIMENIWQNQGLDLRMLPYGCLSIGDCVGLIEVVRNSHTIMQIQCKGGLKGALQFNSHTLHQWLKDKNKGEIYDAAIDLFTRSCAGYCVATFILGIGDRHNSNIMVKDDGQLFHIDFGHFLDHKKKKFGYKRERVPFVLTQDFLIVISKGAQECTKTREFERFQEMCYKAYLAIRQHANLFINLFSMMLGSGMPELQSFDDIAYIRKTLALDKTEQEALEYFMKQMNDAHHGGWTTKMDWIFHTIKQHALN
Chain of UniProt P53779 (whole entry, looked up): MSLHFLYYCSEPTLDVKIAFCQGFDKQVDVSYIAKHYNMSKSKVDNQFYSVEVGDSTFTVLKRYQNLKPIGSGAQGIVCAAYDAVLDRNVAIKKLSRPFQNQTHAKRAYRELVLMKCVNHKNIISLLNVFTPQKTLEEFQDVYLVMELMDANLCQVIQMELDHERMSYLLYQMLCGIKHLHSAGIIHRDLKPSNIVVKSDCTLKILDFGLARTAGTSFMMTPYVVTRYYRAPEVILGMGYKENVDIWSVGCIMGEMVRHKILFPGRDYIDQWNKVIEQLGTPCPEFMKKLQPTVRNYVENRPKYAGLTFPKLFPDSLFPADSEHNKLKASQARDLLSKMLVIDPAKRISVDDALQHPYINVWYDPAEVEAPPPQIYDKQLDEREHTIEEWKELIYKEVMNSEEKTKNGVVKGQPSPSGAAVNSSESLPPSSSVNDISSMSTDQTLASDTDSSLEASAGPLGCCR
Chain of UniProt Q04912 (whole entry, looked up): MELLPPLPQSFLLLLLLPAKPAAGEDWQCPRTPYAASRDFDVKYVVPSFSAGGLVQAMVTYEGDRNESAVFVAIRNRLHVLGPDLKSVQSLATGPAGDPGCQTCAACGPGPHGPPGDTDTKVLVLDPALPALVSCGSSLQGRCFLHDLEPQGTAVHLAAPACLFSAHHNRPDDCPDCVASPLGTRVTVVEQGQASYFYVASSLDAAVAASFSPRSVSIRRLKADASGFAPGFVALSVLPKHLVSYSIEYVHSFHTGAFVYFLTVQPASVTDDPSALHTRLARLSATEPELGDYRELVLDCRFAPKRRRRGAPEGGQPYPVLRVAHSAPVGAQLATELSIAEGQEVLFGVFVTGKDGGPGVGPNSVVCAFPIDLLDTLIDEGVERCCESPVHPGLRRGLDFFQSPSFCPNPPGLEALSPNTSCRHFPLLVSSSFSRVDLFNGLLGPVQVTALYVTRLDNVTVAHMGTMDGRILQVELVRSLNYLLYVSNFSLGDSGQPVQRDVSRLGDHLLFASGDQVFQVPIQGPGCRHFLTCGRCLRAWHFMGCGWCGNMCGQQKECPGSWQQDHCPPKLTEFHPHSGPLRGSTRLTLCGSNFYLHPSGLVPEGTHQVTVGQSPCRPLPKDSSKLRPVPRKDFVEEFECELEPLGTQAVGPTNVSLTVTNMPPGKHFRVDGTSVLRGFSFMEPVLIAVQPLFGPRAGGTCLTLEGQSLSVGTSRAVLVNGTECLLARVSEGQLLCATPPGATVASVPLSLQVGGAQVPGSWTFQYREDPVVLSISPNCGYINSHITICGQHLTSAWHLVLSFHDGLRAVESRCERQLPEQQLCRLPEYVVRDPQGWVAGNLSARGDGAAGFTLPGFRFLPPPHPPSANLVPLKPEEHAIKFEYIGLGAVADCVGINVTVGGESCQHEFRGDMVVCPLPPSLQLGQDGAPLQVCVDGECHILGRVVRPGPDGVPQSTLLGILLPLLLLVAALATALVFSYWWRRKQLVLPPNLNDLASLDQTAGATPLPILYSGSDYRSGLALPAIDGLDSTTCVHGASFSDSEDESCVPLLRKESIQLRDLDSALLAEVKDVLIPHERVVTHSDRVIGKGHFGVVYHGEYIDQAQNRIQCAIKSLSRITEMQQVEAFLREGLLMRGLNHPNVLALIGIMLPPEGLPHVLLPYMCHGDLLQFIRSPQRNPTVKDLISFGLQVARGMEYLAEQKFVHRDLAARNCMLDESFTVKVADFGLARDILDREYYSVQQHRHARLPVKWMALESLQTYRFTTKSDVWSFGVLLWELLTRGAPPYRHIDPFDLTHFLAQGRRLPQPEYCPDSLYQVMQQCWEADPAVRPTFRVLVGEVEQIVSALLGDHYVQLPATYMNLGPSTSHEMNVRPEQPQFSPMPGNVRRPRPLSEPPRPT
Chain of UniProt Q5NUL3 (whole entry, looked up): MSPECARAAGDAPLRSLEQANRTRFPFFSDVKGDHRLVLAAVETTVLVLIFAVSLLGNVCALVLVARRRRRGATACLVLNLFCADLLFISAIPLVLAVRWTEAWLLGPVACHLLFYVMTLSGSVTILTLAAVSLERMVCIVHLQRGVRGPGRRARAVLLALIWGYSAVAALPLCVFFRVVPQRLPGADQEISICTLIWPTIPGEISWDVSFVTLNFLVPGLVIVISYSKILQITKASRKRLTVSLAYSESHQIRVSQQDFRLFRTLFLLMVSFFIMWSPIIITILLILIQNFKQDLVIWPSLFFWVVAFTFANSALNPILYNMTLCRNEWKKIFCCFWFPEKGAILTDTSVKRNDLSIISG
Chain of UniProt O60674 (whole entry, looked up): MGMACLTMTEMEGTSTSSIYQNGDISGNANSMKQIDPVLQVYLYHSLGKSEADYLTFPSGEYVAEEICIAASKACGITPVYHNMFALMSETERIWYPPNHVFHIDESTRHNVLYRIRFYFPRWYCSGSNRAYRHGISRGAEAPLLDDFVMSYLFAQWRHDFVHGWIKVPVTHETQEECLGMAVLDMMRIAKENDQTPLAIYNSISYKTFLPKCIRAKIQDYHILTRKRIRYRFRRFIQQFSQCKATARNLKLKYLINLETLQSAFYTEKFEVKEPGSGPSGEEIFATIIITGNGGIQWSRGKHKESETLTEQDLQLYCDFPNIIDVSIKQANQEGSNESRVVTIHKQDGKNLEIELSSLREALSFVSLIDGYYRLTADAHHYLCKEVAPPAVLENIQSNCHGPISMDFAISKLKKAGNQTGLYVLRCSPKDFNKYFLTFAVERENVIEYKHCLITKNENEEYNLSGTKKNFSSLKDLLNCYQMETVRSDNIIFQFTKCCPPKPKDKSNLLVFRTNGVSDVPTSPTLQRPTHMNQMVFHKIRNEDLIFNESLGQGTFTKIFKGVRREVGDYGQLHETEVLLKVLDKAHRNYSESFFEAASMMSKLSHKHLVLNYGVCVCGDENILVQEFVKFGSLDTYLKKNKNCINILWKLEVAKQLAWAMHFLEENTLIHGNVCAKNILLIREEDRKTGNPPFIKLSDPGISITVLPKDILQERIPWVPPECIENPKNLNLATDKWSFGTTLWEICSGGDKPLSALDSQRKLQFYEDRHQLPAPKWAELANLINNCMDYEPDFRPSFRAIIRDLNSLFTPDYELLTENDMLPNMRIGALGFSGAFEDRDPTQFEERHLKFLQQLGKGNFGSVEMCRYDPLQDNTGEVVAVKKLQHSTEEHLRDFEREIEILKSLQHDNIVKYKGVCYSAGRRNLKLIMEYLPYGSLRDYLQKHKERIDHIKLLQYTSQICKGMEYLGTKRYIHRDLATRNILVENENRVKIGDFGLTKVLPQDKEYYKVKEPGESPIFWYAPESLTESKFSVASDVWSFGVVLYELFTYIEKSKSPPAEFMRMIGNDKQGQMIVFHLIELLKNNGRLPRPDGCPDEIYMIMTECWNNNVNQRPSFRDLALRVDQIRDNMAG

Set 1 — effect on: enzyme activity; mode: inhibitor; tested at: 0.5 µM; relative to: control
Target: Calcium/calmodulin-dependent protein kinase kinase 2 (CAMKK2, Homo sapiens, UniProt Q96RR4)
Chain of UniProt Q96RR4 (whole entry, looked up): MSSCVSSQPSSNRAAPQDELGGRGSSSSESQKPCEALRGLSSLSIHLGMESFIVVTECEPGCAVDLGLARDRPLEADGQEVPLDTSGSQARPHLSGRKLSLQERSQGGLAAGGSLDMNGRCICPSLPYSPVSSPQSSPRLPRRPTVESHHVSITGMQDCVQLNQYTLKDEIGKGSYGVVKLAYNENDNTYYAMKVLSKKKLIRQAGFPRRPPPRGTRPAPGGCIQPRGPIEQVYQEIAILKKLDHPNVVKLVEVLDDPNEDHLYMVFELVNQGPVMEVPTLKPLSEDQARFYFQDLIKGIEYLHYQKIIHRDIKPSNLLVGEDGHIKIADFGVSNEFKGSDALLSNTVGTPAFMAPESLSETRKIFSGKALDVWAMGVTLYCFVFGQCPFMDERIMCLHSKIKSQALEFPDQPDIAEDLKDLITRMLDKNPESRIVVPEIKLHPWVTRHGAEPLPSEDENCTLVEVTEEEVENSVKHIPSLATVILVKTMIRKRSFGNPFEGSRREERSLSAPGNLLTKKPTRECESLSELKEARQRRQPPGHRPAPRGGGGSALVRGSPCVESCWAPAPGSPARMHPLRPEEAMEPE
`Fc1ccc(-c2nc3n(c2-c2ccncc2)CCS3)cc1` gave a remaining activity of 99.9%.
`Cc1ccc(NC2=CC(=O)c3sc(C)nc3C2=O)cc1` gave a remaining activity of 92.5%.
The remaining activity of `Nc1nc(Nc2ccc(S(N)(=O)=O)cc2)nn1C(=O)c1c(F)cccc1F` is reported as 61.5%.
The remaining activity of `Nc1ncnc2c1cnn2-c1ccccc1` is reported as 86.8%.
With `Nc1nccc(-c2c(-c3ccc(F)cc3)ncn2C2CCNCC2)n1` the remaining activity was 110%.
The remaining activity of `CC[n+]1c(/C=C/N(C)c2ccccc2)n(-c2ccccc2)c2ccc(-c3nc4ccccc4s3)cc21` is reported as 115%.
For `O=C1Cc2c([nH]c3ccc([N+](=O)[O-])cc23)-c2ccccc2N1`, the remaining activity was 79.5%.
For `CSc1nc(-c2ccnc(N[C@@H](C)c3ccccc3)c2)c(-c2ccc(F)cc2)[nH]1` (racemic), the remaining activity was 84%.
`Cc1cncc2cccc(S(=O)(=O)N3CCCN(C(=O)CN)C[C@@H]3C)c12` has a remaining activity of 115%.
With `Oc1ccc(Nc2nc(-c3ccc(Cl)cc3)cs2)cc1` the remaining activity was 101%.
With `Cc1cc(Nc2nc(-c3ccccc3)nc3ccccc23)n[nH]1` the remaining activity was 88.6%.
`NC(=O)c1ccc(N(C(N)=O)c2c(F)cccc2F)nc1-c1ccc(F)cc1F` gave a remaining activity of 101%.
With `CC#CC(=O)Nc1cc2c(Nc3ccc(F)c(Cl)c3)ncnc2cn1` the remaining activity was 103%.
`O=S(=O)(NCCNC/C=C/c1ccc(Br)cc1)c1cccc2cnccc12` has a remaining activity of 95.6%.
With `CCCC(=O)Oc1ccc2[nH]c(C(=O)c3cc4ccccc4[nH]3)cc2c1` the remaining activity was 84.6%.
`N#CC(=C(N)Sc1ccc(N)cc1)c1ccccc1C(F)(F)F` has a remaining activity of 85.5%.
With `CC(=O)c1ccc(N2CCOCC2)cc1O` the remaining activity was 115%.
`CC(C)(C)n1nc(Cc2cccc3ccccc23)c2c(N)ncnc21` has a remaining activity of 82.4%.
`COc1ccc(S(=O)(=O)N(CCO)c2ccccc2CN(C)CC=Cc2ccc(Cl)cc2)cc1` gave a remaining activity of 90.7%.
The remaining activity of `COc1cc(Nc2c(C#N)cnc3cc(OCCCN4CCN(C)CC4)c(OC)cc23)c(Cl)cc1Cl` is reported as 85.1%.

Set 2 — Compound: CCN(c1nc(N)c(C(=O)N=C(N)N)nc1Cl)C(C)C; effect on: β-arrestin recruitment; mode: agonist; technique: PRESTO-Tango; tested at: 10 µM; relative to: untreated
The “fold over basal” was 1.19 (FFAR4 (Homo sapiens, UniProt Q5NUL3)).
The “fold over basal” was 1.04 (MCHR2 (Homo sapiens, UniProt Q969V1)).
The “fold over basal” was 1.02 (Adhesion G protein-coupled receptor A2 (ADGRA2, Homo sapiens, UniProt Q96PE1)).
ADRA1A (Homo sapiens, UniProt P35348) — “fold over basal”: 0.79.
The “fold over basal” was 2.83 (ADRA2C (Homo sapiens, UniProt P18825)).
FFAR1 (Homo sapiens, UniProt O14842) — “fold over basal”: 1.12 fold.
Putative adhesion G protein-coupled receptor F2P (ADGRF2P, Homo sapiens, UniProt Q8IZF7) — “fold over basal”: 0.71.
ADORA1 (Homo sapiens, UniProt P30542) — “fold over basal”: 0.86.

Set 3 — host: mouse; sample: microsomes or S9; tested at: 2 µM; time: 0.5 h
With `CC(c1cccc(O)c1)N(C)S(=O)(=O)c1ccc2cn[nH]c2c1` (stereo not drawn) the remaining compound was 0.459%.
With `CCN(CC)C(=O)c1sc(NC(=O)c2cc(OC)cc(OC)c2)c(C(=O)OC(C)C)c1C` the remaining compound was 39.1%.
The remaining compound of `CC(NCc1csc(Br)c1)c1cc2ccccc2o1` (stereo not drawn) is reported as 0.0212%.
For `O=C(O)COc1ccc(C#Cc2ccc(C(=O)NCc3ccccc3)cc2)cc1`, the remaining compound was 34.8%.
The remaining compound of `Cc1cc(O)c(C(=O)O)cc1S(=O)(=O)Nc1ccc(NC(=O)NCC2CCCO2)cc1` (stereo not drawn) is reported as 70.9%.
For `COc1cc2c(cc1OC)C1(c3ccc4c(c3)OCO4)OC(=O)C(=O)N1CC2` (stereo not drawn), the remaining compound was 4.74%.
With `Cc1ccc(Nc2nc(-c3sc(C)nc3C)cs2)nc1` the remaining compound was 0.354%.
For `O=C(NCc1cccc(F)c1)c1c(OCC2CC2)cc(=O)n2c1CCCCC2`, the remaining compound was 15.4%.
With `Fc1ccc(Nc2c(-c3ccccc3)nc3ccccn23)cc1` the remaining compound was 17.7%.
For `O=C(COc1ccccc1)NCCn1cc(-c2ccncc2)c(-c2ccccc2F)n1`, the remaining compound was 1.48%.
With `COc1ccc(N2CC(C(=O)N3CCc4cc(-c5ccno5)ccc43)CC2=O)cc1` (stereo not drawn) the remaining compound was 76%.
For `CC1CCCC(C)N1C(=O)c1cc(-c2ccccc2)nn1-c1ncccc1-c1ccccc1` (stereo not drawn), the remaining compound was 0.341%.
`CCOc1ccccc1NC(=O)NC1(C(=O)O)CCCCC1` gave a remaining compound of 78.1%.

Set 4 — effect on: cell-free assay; technique: competition with immobilised ligand; tested at: 1 µM
SMILES: N#Cc1ccc(Nc2ccc3[nH]c(=O)[nH]c3c2)c(Cl)c1
SIK3 (Homo sapiens, UniProt Q9Y2K2) — remaining binding: 75%.
AXL (Homo sapiens, UniProt P30530) — remaining binding: 100%.
It gave 85% for remaining binding (PAK6 (Homo sapiens, UniProt Q9NQU5)).
The remaining binding was 75% (MAP2K3 (Homo sapiens, UniProt P46734)).
It gave 100% for remaining binding (TLK1 (Homo sapiens, UniProt Q9UKI8)).
It gave 100% for remaining binding (MST1R (Homo sapiens, UniProt Q04912)).
For STK33 (Homo sapiens, UniProt Q9BYT3): remaining binding read 93%.
PAK3 (Homo sapiens, UniProt O75914) — remaining binding: 100%.
PHKG2 (Homo sapiens, UniProt P15735) — remaining binding: 100%.
MAPK15 (Homo sapiens, UniProt Q8TD08) — remaining binding: 100%.
The remaining binding was 93% (MAPK14 (Homo sapiens, UniProt Q16539)).
It gave 90% for remaining binding (PIK3CA (Homo sapiens, UniProt P42336, C420R)).
The remaining binding was 100% (Tyrosine-protein kinase JAK2, JH1 (JAK2, Homo sapiens, UniProt O60674)).
CASK (Homo sapiens, UniProt O14936) — remaining binding: 100%.
It gave 100% for remaining binding (CDK16 (Homo sapiens, UniProt Q00536)).
The remaining binding was 100% (STK25 (Homo sapiens, UniProt O00506)).
OXSR1 (Homo sapiens, UniProt O95747) — remaining binding: 75%.
The remaining binding was 100% (CAMKK1 (Homo sapiens, UniProt Q8N5S9)).
It gave 97% for remaining binding (RET (Homo sapiens, UniProt P07949)).
NEK1 (Homo sapiens, UniProt Q96PY6) — remaining binding: 55%.
FGFR3 (Homo sapiens, UniProt P22607, G697C) — remaining binding: 93%.
The remaining binding was 100% (MAPK10 (Homo sapiens, UniProt P53779)).
ULK3 (Homo sapiens, UniProt Q6PHR2) — remaining binding: 100%.
For MTOR (Homo sapiens, UniProt P42345): remaining binding read 98%.
The remaining binding was 77% (PIK3CA (Homo sapiens, UniProt P42336)).

Some of these lines once more (set 1):
`N#CC(=C(N)Sc1ccc(N)cc1)c1ccccc1C(F)(F)F` has a remaining activity of 85.5%.
`CC(C)(C)n1nc(Cc2cccc3ccccc23)c2c(N)ncnc21` has a remaining activity of 82.4%.
The remaining activity of `COc1cc(Nc2c(C#N)cnc3cc(OCCCN4CCN(C)CC4)c(OC)cc23)c(Cl)cc1Cl` is reported as 85.1%.
For `O=C1Cc2c([nH]c3ccc([N+](=O)[O-])cc23)-c2ccccc2N1`, the remaining activity was 79.5%.
The remaining activity of `Nc1nc(Nc2ccc(S(N)(=O)=O)cc2)nn1C(=O)c1c(F)cccc1F` is reported as 61.5%.
With `CC(=O)c1ccc(N2CCOCC2)cc1O` the remaining activity was 115%.
With `CC#CC(=O)Nc1cc2c(Nc3ccc(F)c(Cl)c3)ncnc2cn1` the remaining activity was 103%.
With `Oc1ccc(Nc2nc(-c3ccc(Cl)cc3)cs2)cc1` the remaining activity was 101%.
